Assay results pooled from the literature.
Compare with care: the assays were run in different laboratories.

Compound	organism	assay	system	setting	MIC
CN1CC(O)=C(C(=O)NC(C(=O)NC2C(=O)N3C2SC(C)(C)C3C(=O)O)c2ccccc2)C1=O (stereo not shown)	Escherichia coli	broth microdilution	isolate IU 356 A, KPC-3, VIM-1, TEM	added: clavulanic acid 6 µg/mL	> 200 µg/mL
CC(C)[C@H](NC(=O)[C@H](CCCNC(=N)N)NC(=O)[C@H](Cc1c[nH]c2ccccc12)NC(=O)[C@H](CCCNC(=N)N)NC(=O)[C@H](Cc1c[nH]c2ccccc12)NC(=O)[C@H](Cc1c[nH]c2ccccc12)NC(=O)[C@H](Cc1c[nH]c2ccccc12)NC(=O)[C@H](CCCNC(=N)N)NC(=O)[C@H](Cc1c[nH]c2ccccc12)NC(=O)[C@@H](N)CCCNC(=N)N)C(N)=O	Candida albicans	broth microdilution	SP3903, RPMI 1640-MOPS	48 h, 30 °C	8 µM
O=[N+]([O-])c1ccc(C2=[N+]([O-])c3ccccc3N3CCN=C23)cc1	Bacteroides fragilis	–	–	–	0.06 to 0.125 µg/mL
CC[C@H](C)[C@H](NC(=O)[C@H](CCCNC(=N)N)NC(=O)[C@H](Cc1c[nH]c2ccccc12)NC(=O)[C@H](CCCNC(=N)N)NC(=O)[C@H](Cc1c[nH]c2ccccc12)NC(=O)[C@H](Cc1c[nH]c2ccccc12)NC(=O)[C@H](Cc1c[nH]c2ccccc12)NC(=O)[C@H](CCCNC(=N)N)NC(=O)[C@H](Cc1c[nH]c2ccccc12)NC(=O)[C@@H](N)CCCNC(=N)N)C(N)=O	Candida albicans	broth microdilution	CGMCC 2.209, RPMI 1640-MOPS	48 h, 30 °C, added: FeCl3 4 µM	16 µM
CCN1CCN(C(=O)N[C@@H](C(=O)N[C@@H]2C(=O)N3[C@@H]2SC(C)(C)[C@@H]3C(=O)O)c2ccccc2)C(=O)C1=O	Escherichia coli	broth microdilution	Keio mutant JW0587-1	18 h, enterobactin-related gene	1.56 µg/mL
C[C@H](NC(=O)[C@H](CCCNC(=N)N)NC(=O)[C@H](Cc1c[nH]c2ccccc12)NC(=O)[C@H](CCCNC(=N)N)NC(=O)[C@H](Cc1c[nH]c2ccccc12)NC(=O)[C@H](Cc1c[nH]c2ccccc12)NC(=O)[C@H](Cc1c[nH]c2ccccc12)NC(=O)[C@H](CCCNC(=N)N)NC(=O)[C@H](Cc1c[nH]c2ccccc12)NC(=O)[C@H](CCCNC(=N)N)NC(=O)CN)C(N)=O	Candida albicans	broth microdilution	CGMCC 2.209, RPMI 1640-MOPS	48 h, 30 °C	8 µM
N=C(N)c1cccc(OCc2ccc(COc3cccc(C(=N)N)c3)cc2)c1	Escherichia coli	–	mcr-1	20 h, compound alone	> 200 µg/mL
CC1(C)SC2C(NC(=O)C(NC(=O)C3=C(O)C(Cc4ccc(O)cc4)NC3=O)c3ccccc3)C(=O)N2C1C(=O)O (stereo not shown)	Escherichia coli	broth microdilution	isolate IU, CTX-M-14, TEM-1	no clavulanic acid	> 200 µg/mL
CC[C@H](C)[C@H](NC(=O)[C@H](Cc1c[nH]c2ccccc12)NC(=O)[C@@H](NC(=O)[C@@H](NC(=O)[C@@H](NC(=O)[C@H](CCCNC(=N)N)NC(=O)[C@@H](N)CCCNC(=N)N)[C@@H](C)CC)[C@@H](C)O)[C@@H](C)CC)C(=O)N[C@H](C(=O)N[C@H](C(=O)N[C@@H](CCCNC(=N)N)C(=O)N[C@@H](CCCNC(=N)N)C(N)=O)[C@@H](C)CC)[C@@H](C)O	Lactiplantibacillus plantarum	–	7469, probiotic strain	24 h, 37 °C, tested up to 128 µM	128 µM
[O-][N+]1=C(c2ccc(Cl)cc2)C2=NCCN2c2ccccc21	Bacteroides fragilis	–	–	–	0.06 to 0.125 µg/mL
CC[C@H](C)[C@H](NC(=O)[C@H](CC(N)=O)NC(=O)[C@H](Cc1ccccc1)NC(=O)[C@H](CCCNC(=N)N)NC(=O)[C@H](CCCNC(=N)N)NC(=O)[C@@H](N)CCCCN)C(=O)N[C@@H](CCCCN)C(=O)N[C@@H](CC(C)C)C(=O)N[C@@H](Cc1c[nH]c2ccccc12)C(=O)N[C@@H](CCCCN)C(=O)N[C@H](C(=O)N[C@@H](Cc1ccccc1)C(=O)O)[C@@H](C)O	Staphylococcus haemolyticus	–	–	–	50 µg/mL
CC(C)(C)OCC1NC(=O)C(C(=O)NC(C(=O)NC2C(=O)N3C2SC(C)(C)C3C(=O)O)c2ccccc2)=C1O (stereo not shown)	Escherichia coli	broth microdilution	Keio mutant JW5195-1	18 h	50 µg/mL
N=C(N)NCCC[C@H](NC(=O)CN)C(=O)N[C@@H](Cc1c[nH]c2ccccc12)C(=O)N[C@@H](CCCNC(=N)N)C(=O)N[C@@H](Cc1c[nH]c2ccccc12)C(=O)N[C@@H](Cc1c[nH]c2ccccc12)C(=O)N[C@@H](Cc1c[nH]c2ccccc12)C(=O)N[C@@H](CCCNC(=N)N)C(=O)N[C@@H](Cc1c[nH]c2ccccc12)C(=O)N[C@@H](CCCNC(=N)N)C(=O)N[C@@H](Cc1ccccc1)C(N)=O	Candida albicans	broth microdilution	SP3931, RPMI 1640-MOPS	48 h, 30 °C	8 µM
CN[C@H](CC(C)C)C(=O)N[C@H]1C(=O)N[C@@H](CC(N)=O)C(=O)N[C@H]2C(=O)NC3C(=O)N[C@H](C(=O)N[C@H](C(=O)NCCC[N+](C)(C)C)c4cc(O)cc(O)c4-c4cc3ccc4O)[C@H](O)c3ccc(c(Cl)c3)Oc3cc2cc(c3OC2OC(CO)C(O)[C@H](O)[C@@H]2O[C@H]2CC(C)(NCc3ccc(-c4ccc(Cl)cc4)cc3)[C@H](O)[C@H](C)O2)Oc2ccc(cc2Cl)[C@H]1O (stereo partly shown)	Enterococcus faecium	–	VanA VRE ATCC BAA-2317	no LTA	0.3 µg/mL
C[C@H](NC(=O)[C@H](CCCNC(=N)N)NC(=O)[C@H](Cc1c[nH]c2ccccc12)NC(=O)[C@H](CCCNC(=N)N)NC(=O)[C@H](Cc1c[nH]c2ccccc12)NC(=O)[C@H](Cc1c[nH]c2ccccc12)NC(=O)[C@H](Cc1c[nH]c2ccccc12)NC(=O)[C@H](CCCNC(=N)N)NC(=O)[C@H](Cc1c[nH]c2ccccc12)NC(=O)[C@@H](N)CCCNC(=N)N)C(N)=O	Candida albicans	broth microdilution	56452, RPMI 1640-MOPS	48 h, 30 °C	8 µM
CC(C)C[C@@H]1NC(=O)[C@H](Cc2ccccc2)NC(=O)[C@H](Cc2ccc(O)cc2)NC(=O)[C@H](CC(C)C)NC(=O)[C@H](CCC(=O)O)NC(=O)[C@H](Cc2ccccc2)NC(=O)[C@H](CCCNC(=N)N)NC(=O)[C@H](CCC(N)=O)NC(=O)[C@H](CC(C)C)NC(=O)[C@H](CC(=O)O)NC(=O)[C@@H]2CCCN2C(=O)[C@H](CCCCN)NC(=O)[C@H](C(C)C)NC(=O)[C@H](CC(N)=O)NC(=O)[C@H](Cc2ccc(O)cc2)NC(=O)[C@H]([C@@H](C)O)NC(=O)[C@@H](N)CSSC[C@@H](C(=O)O)NC(=O)[C@H]([C@@H](C)O)NC(=O)[C@H](C(C)C)NC(=O)[C@H]([C@@H](C)O)NC(=O)CNC1=O	Vibrio alginolyticus	broth dilution	–	24 h	> 40 µM
N=C(N)NCCC[C@H](NC(=O)CCCCCNC(=O)[C@H](CCCNC(=N)N)NC(=O)[C@H](CCCNC(=N)N)NC(=O)CCCCCNC(=O)[C@H](CCCNC(=N)N)NC(=O)[C@H](CCCNC(=N)N)NC(=O)CCCCCNC(=O)[C@H](CCCNC(=N)N)NC(=O)[C@H](CCCNC(=N)N)NC(=O)CCCCCNC(=O)[C@@H](N)CCCNC(=N)N)C(=O)NCCCCCC(=O)NCCC(=O)O	Escherichia coli	–	ATCC 25922	1 h, 37 °C, after 25% human serum	96 µM
CC(C)C1NC(=O)C(C(=O)NC(C(=O)NC2C(=O)N3C2SC(C)(C)C3C(=O)O)c2ccccc2)=C1O (stereo not shown)	Escherichia coli	broth microdilution	isolate IU, CTX-M-14, TEM-1	added: clavulanic acid 6 µg/mL	200 µg/mL
N=C(N)NCCC[C@H](NC(=O)[C@H](Cc1c[nH]c2ccccc12)NC(=O)[C@H](CCCNC(=N)N)NC(=O)[C@H](Cc1c[nH]c2ccccc12)NC(=O)[C@H](Cc1c[nH]c2ccccc12)NC(=O)[C@H](Cc1c[nH]c2ccccc12)NC(=O)[C@H](CCCNC(=N)N)NC(=O)[C@H](Cc1c[nH]c2ccccc12)NC(=O)[C@@H](N)CCCNC(=N)N)C(=O)N[C@@H](Cc1c[nH]c2ccccc12)C(N)=O	Candida albicans	broth microdilution	SP3903, RPMI 1640-MOPS	48 h, 30 °C	8 µM
CC1(C)SC2C(NC(=O)C(NC(=O)C3=C(O)C(Cc4ccc([N+](=O)[O-])cc4)NC3=O)c3ccccc3)C(=O)N2C1C(=O)O (stereo not shown)	Escherichia coli	broth microdilution	isolate IU 356 A, KPC-3, VIM-1, TEM	no clavulanic acid	> 200 µg/mL
CC(C)C[C@H](NC(=O)[C@H](CCCNC(=N)N)NC(=O)[C@H](Cc1c[nH]c2ccccc12)NC(=O)[C@H](CCCNC(=N)N)NC(=O)[C@H](Cc1c[nH]c2ccccc12)NC(=O)[C@H](Cc1c[nH]c2ccccc12)NC(=O)[C@H](Cc1c[nH]c2ccccc12)NC(=O)[C@H](CCCNC(=N)N)NC(=O)[C@H](Cc1c[nH]c2ccccc12)NC(=O)[C@@H](N)CCCNC(=N)N)C(N)=O	Candida albicans	broth microdilution	CGMCC 2.209, RPMI 1640-MOPS	48 h, 30 °C, added: NH4Cl 6 µM	32 µM
CC[C@H](C)[C@H](NC(=O)[C@H](CCCCN)NC(=O)[C@H](CCCCN)NC(=O)[C@H](Cc1ccccc1)NC(=O)[C@@H](NC(=O)[C@@H](NC(=O)[C@H](CCCNC(=N)N)NC(=O)[C@H](Cc1ccccc1)NC(=O)[C@@H](NC(=O)[C@H](CCCCN)NC(=O)[C@H](CCCCN)NC(=O)[C@@H](N)CCSC)[C@@H](C)CC)C(C)C)[C@@H](C)CC)C(=O)N[C@@H](CC(C)C)C(=O)N[C@@H](CCCCN)C(=O)N[C@@H](CCCNC(=N)N)C(=O)N[C@@H](CC(C)C)C(=O)N[C@H](C(=O)N[C@H](C(=O)O)C(C)C)[C@@H](C)CC	Staphylococcus aureus	broth microdilution	MRSA GU-1	compound pretreated with trypsin 1 h, added: trypsin 1 mg/mL	> 32 µg/mL

A few entries again:
Compound	organism	assay	system	setting	MIC
CC[C@H](C)[C@H](NC(=O)[C@H](Cc1c[nH]c2ccccc12)NC(=O)[C@@H](NC(=O)[C@@H](NC(=O)[C@@H](NC(=O)[C@H](CCCNC(=N)N)NC(=O)[C@@H](N)CCCNC(=N)N)[C@@H](C)CC)[C@@H](C)O)[C@@H](C)CC)C(=O)N[C@H](C(=O)N[C@H](C(=O)N[C@@H](CCCNC(=N)N)C(=O)N[C@@H](CCCNC(=N)N)C(N)=O)[C@@H](C)CC)[C@@H](C)O	Lactiplantibacillus plantarum	–	7469, probiotic strain	24 h, 37 °C, tested up to 128 µM	128 µM
[O-][N+]1=C(c2ccc(Cl)cc2)C2=NCCN2c2ccccc21	Bacteroides fragilis	–	–	–	0.06 to 0.125 µg/mL
